Measurements gathered from unrelated publications.
Each numbered part is a random draw from the data of one study; scales do not carry over between parts.

Block 1 — method: RNA Bind-n-Seq; molecule type: RNA; matrix: in vitro; tested at: 200 nM; setting: whole 134-nt RNA, ends assumed; added: 150 mM KCl; baseline: input library; reading: higher = stronger binding
Target: Fragile X messenger ribonucleoprotein 1, C-terminal low-complexity region (Fmr1, Mus musculus, UniProt P35922)
Shared flanks, not repeated: GGGAGUUCUACAGUCCGACGAUC … UGGAAUUCUCGGGUGUCAAGG
Oligonucleotide	log2 enrichment
UUUUAUGUGGAGUUAUGAAGACCUACAGGCAGAGAGAGAAACAGGGGAGCAAGGUGCAAGAGUCCACAAAGGGACCUGAUGAAGCGAAGA	-0.0187
UCCUCAAGUCCUGUGCUACACAUCGUAUGUACCGAAUCGGAGGAGGGAGGGGAAAGUAUUAUGUUACGCCGUUCGGAUCUGCACUUCCAG	0.347
AAGUCCUGUGCUACACAUCGUAUGUACCGAAUCGGGGUUUGGGGUGGGGAAAGGGGAAAGUAUUAUGUUACGCCGUUCGGAUCUGCACUU	0.98
GUCCUGUGCUACACAUCGUAUGUACCGAAUCGGGUUUUUGGGAAAAAAAGGGUUUGGGAAAGUAUUAUGUUACGCCGUUCGGAUCUGCAC	-0.306
UGGCCCUGGUGGCAUGCGGGGAGGAAGAGGUGGCCUCAUGGAUCGUGGUGGUCCCGGUGGAAUGUUCAGAGGUGGCCAUGGUGGAGACAG	-0.15
UCCUGUGCUACACAUCGUAUGUACCGAAUCGGGGAAAGGGGUUUUUUUGGGGUUUGGGGAAAGUAUUAUGUUACGCCGUUCGGAUCUGCA	0.9
CUGUGCUACACAUCGUAUGUACCGAAUCGGGGUUUUUUUGGGGUUUUUUUGGGGAAAGGGGAAAGUAUUAUGUUACGCCGUUCGGAUCUG	-0.214
ACCAUGCAGGUGGGCAUCUUUGGGAAGUGGGGCAAGGGGGGGAUAGGGAGGGGGGUAACACUUUGGGAACAGGUGGUCCCAGGUCGUUUC	0.664
GUCCUGUGCUACACAUCGUAUGUACCGAAUCGGGAAAGGGAAAAAAAGGGUUUUUGGGAAAGUAUUAUGUUACGCCGUUCGGAUCUGCAC	-0.372
CUCAAGUCCUGUGCUACACAUCGUAUGUACCGAAUCGGAGGUGGUUUUUUUGGAAAGUAUUAUGUUACGCCGUUCGGAUCUGCACUUCCA	-0.508
CUCAAGUCCUGUGCUACACAUCGUAUGUACCGAAUCGGUUGGGGUUGGGGUUGGAAAGUAUUAUGUUACGCCGUUCGGAUCUGCACUUCC	0.0158
CAAGUCCUGUGCUACACAUCGUAUGUACCGAAUCGGAAAAAAAGGAGGAAAAAGGAAAGUAUUAUGUUACGCCGUUCGGAUCUGCACUUC	-0.579
CAAGUCCUGUGCUACACAUCGUAUGUACCGAAUCGGUUUGGAAAAAAAGGAAAGGAAAGUAUUAUGUUACGCCGUUCGGAUCUGCACUUC	-0.682
UCAAGUCCUGUGCUACACAUCGUAUGUACCGAAUCGGGGCCGGGGCCGGGCCGGGAAAGUAUUAUGUUACGCCGUUCGGAUCUGCACUUC	-0.0459

Block 2 — method: universal PBM; molecule type: double-stranded DNA, one strand shown; matrix: in vitro; tested at: not given; reading: higher = stronger binding
Target: Sal-like protein 4, full length isoform B (SALL4, Homo sapiens, UniProt Q9UJQ4-2, residues 1-616)
Setting: 8-mer, flanks averaged, mean of replicates
Oligonucleotide	E-score
CTTCTCAA	0.0325
CGTCGATC	0.0265
CACCCAGC	-0.332
ATCATCGA	0.0868
AGTCAAGA	-0.174
GCAGCCAA	-0.0387
GAGTAGCA	-0.00878
AGGCCTTG	-0.264
CCCCCGCA	-0.211
AAATTGTG	0.223
CGTGTCCA	-0.181
CGGCCTCA	-0.218
ATTTCTTC	0.184
CTAACTTC	0.066
CACGGGAC	-0.15
CTTCGCCC	-0.243
ACTGTCCG	-0.133
TGGGACAA	-0.0053
CCCCCATA	0.131

Block 3 — method: protein-binding microarray; molecule type: double-stranded DNA, one strand shown; matrix: in vitro; tested at: not given; reading: higher = stronger binding
Target: Protein C-ets-1 (ETS1, Homo sapiens, UniProt P14921, residues 1-441, K379A, full length assumed)
Setting: k-mer, scored over probes, only values ≥0.25
Construct (chain): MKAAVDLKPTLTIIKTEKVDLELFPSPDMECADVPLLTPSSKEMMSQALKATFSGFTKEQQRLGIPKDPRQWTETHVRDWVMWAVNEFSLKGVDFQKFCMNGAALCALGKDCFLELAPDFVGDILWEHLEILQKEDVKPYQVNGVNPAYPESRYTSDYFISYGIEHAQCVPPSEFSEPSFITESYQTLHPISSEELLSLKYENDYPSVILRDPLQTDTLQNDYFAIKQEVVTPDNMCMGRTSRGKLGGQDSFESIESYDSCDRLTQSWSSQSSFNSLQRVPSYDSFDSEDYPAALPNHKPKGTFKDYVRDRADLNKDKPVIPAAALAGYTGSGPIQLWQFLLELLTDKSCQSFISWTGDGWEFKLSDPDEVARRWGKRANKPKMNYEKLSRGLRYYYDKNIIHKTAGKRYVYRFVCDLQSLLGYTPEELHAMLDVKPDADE
Oligonucleotide	E-score
ATGAACCG	0.253
ATTGCGTC	0.267
ACCGCCGC	0.26
AATACAAA	0.302
ATCACCGG	0.365
GTGTTGTA	0.258
ACGACACG	0.292
GACACACA	0.258
ACATCCGC	0.266
CGGTATTC	0.277
CCACCGGG	0.288
ATTTTCCG	0.273
AACCGACA	0.284
GACGTCCA	0.265
ATAACGGA	0.263
AACAGACA	0.257
ACCGACAC	0.392
ACGCAATC	0.258
GTGACAAC	0.264
CATGTCGG	0.304
GAATTACA	0.277

Block 4 — method: protein-binding microarray; molecule type: double-stranded DNA, one strand shown; matrix: in vitro; tested at: 2200 nM top; setting: 60-bp whole probe; added: salmon DNA 0.4 mg/ml; baseline: random background probes; reading: higher = stronger binding; shared flanks, not repeated: GCCTAGCAC … GTCTTGATTCGCTTGACGCTGCTG
Target: Interferon regulatory factor 7, full length, phosphomimetic (IRF7, Homo sapiens, UniProt Q92985, residues 1-503, S471D/S472D/S475D/S476D/S477D/S483D/S484D/S487D)
UniProt Q92985, sequence (whole entry, unmodified, looked up): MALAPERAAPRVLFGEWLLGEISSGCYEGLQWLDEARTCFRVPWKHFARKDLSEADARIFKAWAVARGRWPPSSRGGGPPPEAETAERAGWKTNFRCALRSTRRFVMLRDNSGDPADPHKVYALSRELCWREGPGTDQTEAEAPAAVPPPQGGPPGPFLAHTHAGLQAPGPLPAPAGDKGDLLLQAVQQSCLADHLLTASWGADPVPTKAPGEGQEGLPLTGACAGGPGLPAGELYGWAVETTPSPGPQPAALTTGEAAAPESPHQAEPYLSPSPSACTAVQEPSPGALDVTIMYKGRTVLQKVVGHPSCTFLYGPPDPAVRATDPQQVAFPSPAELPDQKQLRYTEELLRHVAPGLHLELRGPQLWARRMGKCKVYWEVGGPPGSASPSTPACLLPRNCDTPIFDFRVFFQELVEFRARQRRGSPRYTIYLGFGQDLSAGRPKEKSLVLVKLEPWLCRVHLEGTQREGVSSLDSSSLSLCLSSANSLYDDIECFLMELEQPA
Oligonucleotide	fitted relative affinity [z-score]
GACGGACTACTTTTCCTGACGTGCTAG	0.832
GACCATATCAGTATCGAGACGTGCTAG	0.708
GACGGTTGCGGGTATCGGGACGTGCTA	-0.00664
GACGTTATCAGACTGGAGACGTGCTAG	0.0595
GGACACGGATGCGGTCTGCCGTGCTAG	-0.403
ACGTAGAAGGAAGAAGCACGGTGCTAG	-0.545
TTAGGTATCGGGTAGCGGTTAGTGCTA	-0.146
TTAGGTTTCCTTTCCTTTTAGTGCTAG	5.7
GACGGTCTCGTTATCGGGACGTGCTAG	0.176
TTAGATTTCAGTATTGATTAGTGCTAG	0.466
TTAGGTTTCGGGCTTCGGTTAGTGCTA	4.02
GACGATCTCAGGATCGAGACGTGCTAG	-0.0411
TTAGAACTGGGCACTGGATTAGTGCTA	-0.97
GACGATTTCGGGTTTCGGGACGTGCTA	5.35
CGCTTTCTTTAACTCATTTTGTGCTAG	2.43
AACGATATCAGTTTCGAGACGTGCTAG	3.61
TCATTTTTCATCATTGCACTGTGCTAG	2.13
TTAGCTTTCGGTTCCGGTTAGTGCTAG	11.7
GACGACTTCAGTTTCGAGACGTGCTAG	3.65
AAGTTTTTCATTTTTTTTCAGTGCTAG	1.4
TCAATTTTAACCCTTATACTGTGCTAG	0.664
TTCTTTACCACATTCTCTGCGTGCTAG	1.69
CTCGGTTTCCAAATTGTCTCGTGCTAG	3.4
GAATGTTTTTCATTGTTTTTGTGCTAG	1.22
TTAGGACTGGACTTACGGTTAGTGCTA	-0.276

Block 5 — method: aptamer microarray, sandwich; molecule type: DNA with 2'F-ANA; matrix: in vitro; tested at: 200 nM; added: Cy3 exosite-II aptamer, 400 nM; reading: higher = stronger binding; oligonucleotide: GGTTGGTGTGGTTGG
Target: Prothrombin, mature alpha-thrombin (F2, Homo sapiens, UniProt P00734)
Setting: whole 15-mer aptamer, many near background
Modification	mean fluorescence intensity [a.u.]
2'F-ANA at 2 3 4 5 6 8 13 14 15	43.6
2'F-ANA at 1 2 9 11 12 13 14 15	71
2'F-ANA at 2 4 5 6 8 11 12 13 14	50.7
2'F-ANA at 1 3 4 5 6 8 9 10 11 12 13 14 15	51
2'F-ANA at 1 5 6 7 8 12 15	130
2'F-ANA at 2 4 6 7 8 9 10 13 15	65.6
2'F-ANA at 1 3 4 7 9 10 11 12 13 14 15	61
2'F-ANA at 2 3 7 8 9 10 13	360
2'F-ANA at 3 6 11 12 14 15	487
2'F-ANA at 2 3 4 9 10 13 14	176
2'F-ANA at 2 3 5 10 11 12 13 14 15	49.2
2'F-ANA at 1 2 4 8 11 13 14	52.9
2'F-ANA at 1 3 4 7 9 10 12 14 15	57.8
2'F-ANA at 1 3 4 6 12 13 14	93.3
2'F-ANA at 5 6 8 10 14 15	53
2'F-ANA at 1 5 8 9 10 11 12 13	45.2
2'F-ANA at 2 4 5 9 10 11 14	45
2'F-ANA at 1 4 6 7 8 10 11 12 13 14	184

Block 6 — method: protein binding microarray; molecule type: double-stranded DNA, one strand shown; matrix: in vitro; tested at: not given; baseline: not given; reading: higher = stronger binding
Target: Histone acetyltransferase KAT6A, winged helix 2, GST fusion (KAT6A, Homo sapiens, UniProt Q92794, residues 85-181)
Setting: 8-mer, flanks averaged, mean of 2 arrays, mostly near background
Construct (chain): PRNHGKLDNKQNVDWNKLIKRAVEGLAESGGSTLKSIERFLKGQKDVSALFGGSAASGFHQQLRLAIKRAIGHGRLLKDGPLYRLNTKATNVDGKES
Oligonucleotide	E-score
ACGTTAGA	-0.0984
CTATACCC	-0.15
CACAACCG	0.0573
AGCACAAC	0.107
AAATAAAG	0.0277
ACATGAGG	-0.159
CCCGATCC	0.0346
AGGTAAAC	0.121
ATACAGCC	-0.142
ACACTCTG	0.0428
GCCATATA	0.0411
CAATACCG	-0.192
CATGAGAA	0.0118
GACCAGGA	-0.0563
CTAGCTGA	-0.173
ACCATGAC	0.00824
AGAATTCG	0.101
GTTCTCAA	0.0739
AGACTGAC	0.0102
ATGCTAAG	-0.0339
ACGTCTGC	-0.126
CTGTAACC	-0.01
AGCGTGAC	0.00378
AAGCCACA	-0.0147
GGCCCTAC	-0.088

Excerpt of the above (block 5):
Modification	mean fluorescence intensity [a.u.]
2'F-ANA at 2 3 7 8 9 10 13	360
2'F-ANA at 1 3 4 7 9 10 12 14 15	57.8
2'F-ANA at 2 4 5 9 10 11 14	45
2'F-ANA at 1 3 4 5 6 8 9 10 11 12 13 14 15	51
2'F-ANA at 2 4 6 7 8 9 10 13 15	65.6
2'F-ANA at 2 4 5 6 8 11 12 13 14	50.7
2'F-ANA at 1 2 4 8 11 13 14	52.9
2'F-ANA at 3 6 11 12 14 15	487
2'F-ANA at 1 3 4 7 9 10 11 12 13 14 15	61
2'F-ANA at 2 3 4 9 10 13 14	176
2'F-ANA at 1 3 4 6 12 13 14	93.3
2'F-ANA at 2 3 5 10 11 12 13 14 15	49.2
2'F-ANA at 1 5 6 7 8 12 15	130
2'F-ANA at 1 4 6 7 8 10 11 12 13 14	184
